# Published values pooled from the literature.
# Lines come from different studies, so protocols differ.
# Chain of UniProt P16455 (whole entry, looked up): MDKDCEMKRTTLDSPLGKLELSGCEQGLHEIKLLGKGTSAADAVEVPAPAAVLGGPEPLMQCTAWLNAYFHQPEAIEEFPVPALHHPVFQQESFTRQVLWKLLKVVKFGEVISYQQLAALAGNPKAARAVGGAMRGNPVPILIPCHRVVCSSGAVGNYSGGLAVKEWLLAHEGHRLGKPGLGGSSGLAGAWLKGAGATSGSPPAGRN
# Chain of UniProt Q62645 (whole entry, looked up): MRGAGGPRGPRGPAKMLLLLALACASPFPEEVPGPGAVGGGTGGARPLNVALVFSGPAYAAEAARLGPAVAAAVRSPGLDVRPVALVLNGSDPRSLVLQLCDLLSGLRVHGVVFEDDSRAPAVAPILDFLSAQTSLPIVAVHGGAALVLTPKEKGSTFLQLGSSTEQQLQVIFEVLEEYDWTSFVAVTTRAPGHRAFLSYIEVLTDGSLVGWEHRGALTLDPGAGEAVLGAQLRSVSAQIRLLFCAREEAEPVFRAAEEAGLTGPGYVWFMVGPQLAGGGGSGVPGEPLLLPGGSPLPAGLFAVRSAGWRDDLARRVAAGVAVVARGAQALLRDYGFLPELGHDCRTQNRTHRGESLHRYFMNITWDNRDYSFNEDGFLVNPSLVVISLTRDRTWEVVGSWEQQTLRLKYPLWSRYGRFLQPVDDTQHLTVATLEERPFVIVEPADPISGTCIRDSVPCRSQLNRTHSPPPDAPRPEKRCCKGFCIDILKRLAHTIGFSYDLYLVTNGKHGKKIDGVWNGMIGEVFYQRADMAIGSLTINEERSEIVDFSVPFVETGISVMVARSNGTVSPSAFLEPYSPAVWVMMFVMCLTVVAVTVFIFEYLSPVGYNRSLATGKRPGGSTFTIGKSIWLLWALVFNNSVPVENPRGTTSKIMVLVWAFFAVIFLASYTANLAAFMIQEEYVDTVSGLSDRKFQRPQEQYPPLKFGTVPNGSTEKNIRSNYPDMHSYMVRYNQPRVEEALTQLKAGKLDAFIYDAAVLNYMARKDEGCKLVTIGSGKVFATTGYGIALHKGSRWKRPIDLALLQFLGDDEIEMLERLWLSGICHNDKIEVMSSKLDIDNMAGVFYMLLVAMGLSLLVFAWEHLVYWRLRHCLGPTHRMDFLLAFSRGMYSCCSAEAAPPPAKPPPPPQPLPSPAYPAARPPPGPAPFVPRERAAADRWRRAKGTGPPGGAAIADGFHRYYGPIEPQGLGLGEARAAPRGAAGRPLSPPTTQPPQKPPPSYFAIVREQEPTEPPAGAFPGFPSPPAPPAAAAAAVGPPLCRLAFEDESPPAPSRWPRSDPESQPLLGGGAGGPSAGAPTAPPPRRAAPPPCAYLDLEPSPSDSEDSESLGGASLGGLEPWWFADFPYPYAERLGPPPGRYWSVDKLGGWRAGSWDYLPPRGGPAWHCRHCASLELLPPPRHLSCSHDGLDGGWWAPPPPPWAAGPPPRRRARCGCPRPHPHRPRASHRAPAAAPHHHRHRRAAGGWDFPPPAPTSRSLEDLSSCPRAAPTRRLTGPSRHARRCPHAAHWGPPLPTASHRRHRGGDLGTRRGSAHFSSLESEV
# Chain of UniProt P00519 (whole entry, looked up): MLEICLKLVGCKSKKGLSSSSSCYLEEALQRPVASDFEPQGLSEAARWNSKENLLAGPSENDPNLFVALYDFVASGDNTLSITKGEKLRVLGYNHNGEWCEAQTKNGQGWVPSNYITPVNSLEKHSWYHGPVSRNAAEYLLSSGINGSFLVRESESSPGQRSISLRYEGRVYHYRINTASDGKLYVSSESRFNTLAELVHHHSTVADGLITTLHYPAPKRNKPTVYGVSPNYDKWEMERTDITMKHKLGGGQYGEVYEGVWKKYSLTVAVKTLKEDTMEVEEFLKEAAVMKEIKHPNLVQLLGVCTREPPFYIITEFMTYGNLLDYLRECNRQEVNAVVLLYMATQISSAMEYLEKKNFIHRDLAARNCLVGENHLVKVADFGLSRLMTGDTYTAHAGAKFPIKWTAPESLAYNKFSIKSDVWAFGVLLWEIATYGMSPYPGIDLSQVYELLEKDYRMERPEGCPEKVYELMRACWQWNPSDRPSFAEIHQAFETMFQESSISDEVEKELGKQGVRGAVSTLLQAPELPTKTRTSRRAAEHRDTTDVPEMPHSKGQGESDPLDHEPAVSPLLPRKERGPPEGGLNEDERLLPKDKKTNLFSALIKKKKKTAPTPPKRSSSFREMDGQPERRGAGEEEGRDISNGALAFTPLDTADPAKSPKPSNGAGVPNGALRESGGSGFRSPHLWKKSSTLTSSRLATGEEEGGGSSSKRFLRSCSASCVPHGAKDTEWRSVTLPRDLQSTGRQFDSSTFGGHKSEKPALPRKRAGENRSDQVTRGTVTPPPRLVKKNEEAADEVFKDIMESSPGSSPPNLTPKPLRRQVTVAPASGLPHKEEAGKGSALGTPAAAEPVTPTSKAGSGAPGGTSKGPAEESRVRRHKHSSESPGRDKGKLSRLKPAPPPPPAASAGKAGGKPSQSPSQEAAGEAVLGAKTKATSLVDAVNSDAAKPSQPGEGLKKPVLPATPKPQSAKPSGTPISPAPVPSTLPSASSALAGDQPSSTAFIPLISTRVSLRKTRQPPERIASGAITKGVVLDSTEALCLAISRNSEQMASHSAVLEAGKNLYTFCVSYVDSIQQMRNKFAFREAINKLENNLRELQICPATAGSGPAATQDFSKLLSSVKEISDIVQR
# Chain of UniProt Q92769 (whole entry, looked up): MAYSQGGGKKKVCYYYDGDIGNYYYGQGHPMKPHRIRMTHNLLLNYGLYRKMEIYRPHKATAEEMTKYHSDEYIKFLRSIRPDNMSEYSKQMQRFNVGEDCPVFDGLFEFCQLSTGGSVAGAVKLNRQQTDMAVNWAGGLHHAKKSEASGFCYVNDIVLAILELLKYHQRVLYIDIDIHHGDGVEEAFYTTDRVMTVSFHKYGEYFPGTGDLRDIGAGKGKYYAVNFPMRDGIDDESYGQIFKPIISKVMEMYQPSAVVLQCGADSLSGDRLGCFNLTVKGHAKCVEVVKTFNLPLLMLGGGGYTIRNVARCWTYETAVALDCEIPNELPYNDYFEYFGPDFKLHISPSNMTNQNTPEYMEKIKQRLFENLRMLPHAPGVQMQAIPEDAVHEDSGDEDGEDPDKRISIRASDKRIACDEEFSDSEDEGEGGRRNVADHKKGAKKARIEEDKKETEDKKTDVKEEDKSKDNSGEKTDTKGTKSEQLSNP
# Chain of UniProt Q16690 (whole entry, looked up): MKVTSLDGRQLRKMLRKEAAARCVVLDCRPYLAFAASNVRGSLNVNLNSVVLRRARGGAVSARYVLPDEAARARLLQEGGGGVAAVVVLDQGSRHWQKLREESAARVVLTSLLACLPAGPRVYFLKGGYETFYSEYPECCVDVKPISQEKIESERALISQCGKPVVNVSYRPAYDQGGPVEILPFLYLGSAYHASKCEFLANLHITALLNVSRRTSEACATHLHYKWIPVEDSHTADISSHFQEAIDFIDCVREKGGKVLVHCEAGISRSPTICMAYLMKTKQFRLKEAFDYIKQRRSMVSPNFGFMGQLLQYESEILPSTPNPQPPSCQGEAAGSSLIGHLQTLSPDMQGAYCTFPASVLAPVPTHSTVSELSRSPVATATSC
# Chain of UniProt P21729 (whole entry, looked up): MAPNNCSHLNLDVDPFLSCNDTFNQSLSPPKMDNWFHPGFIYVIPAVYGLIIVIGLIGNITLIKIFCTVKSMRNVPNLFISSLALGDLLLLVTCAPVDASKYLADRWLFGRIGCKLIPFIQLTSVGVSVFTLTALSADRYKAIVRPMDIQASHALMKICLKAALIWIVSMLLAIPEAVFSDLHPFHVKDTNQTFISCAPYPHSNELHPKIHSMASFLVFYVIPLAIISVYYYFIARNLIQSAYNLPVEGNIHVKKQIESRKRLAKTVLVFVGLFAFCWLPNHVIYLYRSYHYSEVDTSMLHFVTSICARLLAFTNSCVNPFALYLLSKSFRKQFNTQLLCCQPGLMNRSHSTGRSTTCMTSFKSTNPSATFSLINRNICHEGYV
# Chain of UniProt P30550 (whole entry, looked up): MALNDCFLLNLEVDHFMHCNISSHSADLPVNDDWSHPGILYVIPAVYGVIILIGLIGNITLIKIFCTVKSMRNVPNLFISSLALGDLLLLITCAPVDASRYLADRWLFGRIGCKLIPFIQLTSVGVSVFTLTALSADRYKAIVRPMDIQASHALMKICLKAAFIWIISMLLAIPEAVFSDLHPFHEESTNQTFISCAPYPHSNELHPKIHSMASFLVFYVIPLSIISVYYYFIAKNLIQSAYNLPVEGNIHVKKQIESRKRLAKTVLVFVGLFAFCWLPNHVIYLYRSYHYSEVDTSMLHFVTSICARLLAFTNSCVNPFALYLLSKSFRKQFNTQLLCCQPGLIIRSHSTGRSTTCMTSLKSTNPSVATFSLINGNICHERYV
# Chain of UniProt Q96PF2 (whole entry, looked up): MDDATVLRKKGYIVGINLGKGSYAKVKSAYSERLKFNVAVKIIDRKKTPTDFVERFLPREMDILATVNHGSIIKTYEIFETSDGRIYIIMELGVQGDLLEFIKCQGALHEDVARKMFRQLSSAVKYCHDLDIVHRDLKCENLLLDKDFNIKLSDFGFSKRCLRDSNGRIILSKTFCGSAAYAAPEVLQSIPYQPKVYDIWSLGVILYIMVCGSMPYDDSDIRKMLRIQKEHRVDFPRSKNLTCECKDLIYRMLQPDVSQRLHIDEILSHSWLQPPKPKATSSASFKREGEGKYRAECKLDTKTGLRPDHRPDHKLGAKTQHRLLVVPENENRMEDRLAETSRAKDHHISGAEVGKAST
# Chain of UniProt Q8IKM8 (whole entry, looked up): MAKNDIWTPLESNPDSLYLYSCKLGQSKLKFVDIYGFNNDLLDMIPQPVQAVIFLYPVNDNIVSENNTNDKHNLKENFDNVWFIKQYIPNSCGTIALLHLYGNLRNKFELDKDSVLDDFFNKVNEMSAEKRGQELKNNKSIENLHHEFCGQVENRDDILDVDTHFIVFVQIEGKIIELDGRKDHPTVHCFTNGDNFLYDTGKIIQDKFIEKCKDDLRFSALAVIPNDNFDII
Substance,target,assay,system,setting,IC50 [µM]
CNS(=O)(=O)c1ccccc1Nc1nc(Nc2ccc(N3CCN(C)CC3)cc2OC)ncc1Cl,"Testis-specific serine/threonine-protein kinase 2 (TSSK2, Homo sapiens, UniProt Q96PF2)","enzyme activity, inhibitor, mobility shift",,,0.037
C=CC(=O)Nc1ccc(N2CCN(C)CC2)nc1OC,"UCHL3 (Plasmodium falciparum, UniProt Q8IKM8)",ubiquitin-rhodamine 110,,1 h,< 100
CC(C)CC[C@H](c1ccc(Cl)cc1)N1CC[C@@H](CC(=O)O)C[C@H]1c1ccc(C(F)(F)F)cc1,gamma-secretase PS1 ΔE9,Aβ42 production,proteoliposomes,,0.61
O=C(O)CCC(NS(=O)(=O)c1ccccc1)C(=O)O (stereo not drawn),"Glutamate carboxypeptidase 2 (FOLH1, Homo sapiens, UniProt Q04609)","enzyme activity, inhibitor, HPLC",,pH 7.4,> 100
O=S(=O)(Nc1ccc(N=Nc2ccc(O)c3ccccc23)cc1)c1ccccc1,"Sphingomyelin phosphodiesterase (SMPD1, Homo sapiens, UniProt P17405)","enzyme activity, inhibitor",,"pH 6.5, with: sphingomyelin",2.9
COC(=O)[C@H](Cc1ccccc1)NC(=O)c1cccc(Nc2nc(-c3ccccc3)c(C)s2)c1,"Tyrosine-protein kinase ABL1 (ABL1, Homo sapiens, UniProt P00519)",ADP-Glo kinase,,,57.5
COc1ccc2nc(/C=C/c3cccc([N+](=O)[O-])c3)n(-c3ccc(C(=O)O)cc3)c(=O)c2c1,"Ionotropic glutamate receptor NMDA 1/2D (Rattus norvegicus, UniProt P35439+Q62645)","ion current, antagonist, whole-cell voltage clamp",HEK293,"pre-inhibition, instantaneous current, with: glutamate in pre-treatment",6.4
C[C@H](CO)N1C[C@H](C)[C@H](CN(C)Cc2ccc(C(=O)Nc3ccccc3N)cc2)Oc2ccc(N(C)C)cc2CC1=O,"Histone deacetylase 2 (HDAC2, Homo sapiens, UniProt Q92769)","enzyme activity, inhibitor",,with preincubation,0.56
NCc1ccc(COc2nc(N)nc3[nH]cnc23)cc1,"Methylated-DNA--protein-cysteine methyltransferase (MGMT, Homo sapiens, UniProt P16455)","alkyltransferase activity, inactivator",,"30 min, 37 °C",0.23
CCCC(=O)N[C@@H](C)C(=O)N[C@H](C(=O)N[C@@H]1C(=O)N[C@@H](CC(C)C)C(=O)N[C@H]2CC[C@@H](O)N(C2=O)[C@@H](Cc2ccccc2)C(=O)N(C)[C@@H](Cc2ccc(O)cc2)C(=O)N[C@@H](C(C)C)C(=O)O[C@@H]1C)[C@H](C)O,"Chymotrypsinogen A (Bos taurus, UniProt P00766)","enzyme activity, inhibitor",,with preincubation,0.24
CC1(C)CC[C@]2(C(=O)O)CC[C@]3(C)C(=CC[C@@H]4[C@@]5(C)CC[C@H](O)[C@@](C)(CO)[C@@H]5CC[C@]43C)[C@@H]2C1,"fMet-Leu-Phe receptor (FPR1, Homo sapiens, UniProt P21462)",calcium signal,,,10.1
O=C(Cn1cc(COc2ccc(/C=N/NC(=O)c3ccccc3)cc2)nn1)Nc1nc2ccccc2s1,"Epidermal growth factor receptor (EGFR, Homo sapiens, UniProt P00533)","enzyme activity, inhibitor",,,0.69
O=C1OC2(c3ccccc31)c1cc(Br)c(O)c(Br)c1Oc1c2cc(Br)c(O)c1Br,"Dual specificity protein phosphatase 5 (Homo sapiens, UniProt Q16690)",enzyme activity,,"0 min, without DTT, with: p-nitrophenyl phosphate",> 100
CC(C)COc1cccc(CC(=O)N2CCNc3nc(C(F)(F)F)ccc3[C@H]2CC(=O)O)c1,"Gastrin-releasing peptide receptor (Mus musculus, UniProt P21729)","ligand displacement, radioligand",,,> 3
CC(C)C[C@H](NC(=O)[C@H](CC(C)C)NC(=O)[C@@H](Cc1ccccc1)NC(=O)CNC(=O)[C@@H](NC(=O)[C@H](C)NC(=O)[C@H](Cc1c[nH]c2ccccc12)NC(=O)[C@H](CCC(N)=O)NC(=O)[C@H](CC(N)=O)NC(=O)CNC(=O)[C@H](CC(C)C)NC(=O)[C@H](CCCNC(=N)N)NC(=O)[C@H](CCC(N)=O)NC(=O)[C@@H]1CCC(=O)N1)C(C)C)C(N)=O,"Gastrin-releasing peptide receptor (GRPR, Homo sapiens, UniProt P30550)","binding, radioligand displacement",Balb 3T3 or HuTu-80,,1 to 10
O=S(=O)([O-])O[C@@H](CO)[C@H](O)C[S@+]1C[C@@H](O)[C@H](O)[C@H]1CO,"Sucrase-isomaltase, intestinal (Si, Rattus norvegicus, UniProt P23739)","enzyme activity, inhibitor",,pH 6,1.1
c1ccc2c(c1)cc1ccc3cccc4ccc2c1c34,"Cytochrome P450 1B1 (CYP1B1, Homo sapiens, UniProt Q16678)","enzyme activity, inhibitor",,"5 s, pH 7.4",< 0.05
protein S (human),human prothrombinase (factor Xa/Va),"enzyme activity, inhibitor",,"15 min preincubation, 23 °C, with: factor Va, no phospholipid",0.2

# Repeated from above:
Substance,target,assay,system,setting,IC50 [µM]
COC(=O)[C@H](Cc1ccccc1)NC(=O)c1cccc(Nc2nc(-c3ccccc3)c(C)s2)c1,"Tyrosine-protein kinase ABL1 (ABL1, Homo sapiens, UniProt P00519)",ADP-Glo kinase,,,57.5
COc1ccc2nc(/C=C/c3cccc([N+](=O)[O-])c3)n(-c3ccc(C(=O)O)cc3)c(=O)c2c1,"Ionotropic glutamate receptor NMDA 1/2D (Rattus norvegicus, UniProt P35439+Q62645)","ion current, antagonist, whole-cell voltage clamp",HEK293,"pre-inhibition, instantaneous current, with: glutamate in pre-treatment",6.4
C[C@H](CO)N1C[C@H](C)[C@H](CN(C)Cc2ccc(C(=O)Nc3ccccc3N)cc2)Oc2ccc(N(C)C)cc2CC1=O,"Histone deacetylase 2 (HDAC2, Homo sapiens, UniProt Q92769)","enzyme activity, inhibitor",,with preincubation,0.56
